Assay results gathered from unrelated publications.
Several values in a cell are separate wells, animals, samples, runs or records. ± marks the error that the study gave.
Sequence of UniProt O76090 (whole entry, unmodified, looked up): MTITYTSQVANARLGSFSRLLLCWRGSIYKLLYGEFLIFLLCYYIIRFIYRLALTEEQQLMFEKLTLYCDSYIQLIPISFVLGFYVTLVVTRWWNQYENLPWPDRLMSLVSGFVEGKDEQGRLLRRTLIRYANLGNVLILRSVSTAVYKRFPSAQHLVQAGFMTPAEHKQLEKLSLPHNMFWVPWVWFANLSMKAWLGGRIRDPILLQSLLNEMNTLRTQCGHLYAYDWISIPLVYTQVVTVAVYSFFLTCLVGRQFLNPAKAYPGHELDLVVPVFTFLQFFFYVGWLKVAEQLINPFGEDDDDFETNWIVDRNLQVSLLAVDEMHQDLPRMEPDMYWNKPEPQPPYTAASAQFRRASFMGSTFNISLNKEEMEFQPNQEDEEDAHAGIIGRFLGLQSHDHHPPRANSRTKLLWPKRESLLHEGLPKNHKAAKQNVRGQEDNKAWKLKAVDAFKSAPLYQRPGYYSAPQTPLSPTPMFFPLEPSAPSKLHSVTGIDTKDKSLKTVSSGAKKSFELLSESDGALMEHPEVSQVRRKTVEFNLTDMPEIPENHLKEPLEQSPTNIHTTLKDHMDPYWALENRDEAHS
Sequence of UniProt P11388 (whole entry, looked up): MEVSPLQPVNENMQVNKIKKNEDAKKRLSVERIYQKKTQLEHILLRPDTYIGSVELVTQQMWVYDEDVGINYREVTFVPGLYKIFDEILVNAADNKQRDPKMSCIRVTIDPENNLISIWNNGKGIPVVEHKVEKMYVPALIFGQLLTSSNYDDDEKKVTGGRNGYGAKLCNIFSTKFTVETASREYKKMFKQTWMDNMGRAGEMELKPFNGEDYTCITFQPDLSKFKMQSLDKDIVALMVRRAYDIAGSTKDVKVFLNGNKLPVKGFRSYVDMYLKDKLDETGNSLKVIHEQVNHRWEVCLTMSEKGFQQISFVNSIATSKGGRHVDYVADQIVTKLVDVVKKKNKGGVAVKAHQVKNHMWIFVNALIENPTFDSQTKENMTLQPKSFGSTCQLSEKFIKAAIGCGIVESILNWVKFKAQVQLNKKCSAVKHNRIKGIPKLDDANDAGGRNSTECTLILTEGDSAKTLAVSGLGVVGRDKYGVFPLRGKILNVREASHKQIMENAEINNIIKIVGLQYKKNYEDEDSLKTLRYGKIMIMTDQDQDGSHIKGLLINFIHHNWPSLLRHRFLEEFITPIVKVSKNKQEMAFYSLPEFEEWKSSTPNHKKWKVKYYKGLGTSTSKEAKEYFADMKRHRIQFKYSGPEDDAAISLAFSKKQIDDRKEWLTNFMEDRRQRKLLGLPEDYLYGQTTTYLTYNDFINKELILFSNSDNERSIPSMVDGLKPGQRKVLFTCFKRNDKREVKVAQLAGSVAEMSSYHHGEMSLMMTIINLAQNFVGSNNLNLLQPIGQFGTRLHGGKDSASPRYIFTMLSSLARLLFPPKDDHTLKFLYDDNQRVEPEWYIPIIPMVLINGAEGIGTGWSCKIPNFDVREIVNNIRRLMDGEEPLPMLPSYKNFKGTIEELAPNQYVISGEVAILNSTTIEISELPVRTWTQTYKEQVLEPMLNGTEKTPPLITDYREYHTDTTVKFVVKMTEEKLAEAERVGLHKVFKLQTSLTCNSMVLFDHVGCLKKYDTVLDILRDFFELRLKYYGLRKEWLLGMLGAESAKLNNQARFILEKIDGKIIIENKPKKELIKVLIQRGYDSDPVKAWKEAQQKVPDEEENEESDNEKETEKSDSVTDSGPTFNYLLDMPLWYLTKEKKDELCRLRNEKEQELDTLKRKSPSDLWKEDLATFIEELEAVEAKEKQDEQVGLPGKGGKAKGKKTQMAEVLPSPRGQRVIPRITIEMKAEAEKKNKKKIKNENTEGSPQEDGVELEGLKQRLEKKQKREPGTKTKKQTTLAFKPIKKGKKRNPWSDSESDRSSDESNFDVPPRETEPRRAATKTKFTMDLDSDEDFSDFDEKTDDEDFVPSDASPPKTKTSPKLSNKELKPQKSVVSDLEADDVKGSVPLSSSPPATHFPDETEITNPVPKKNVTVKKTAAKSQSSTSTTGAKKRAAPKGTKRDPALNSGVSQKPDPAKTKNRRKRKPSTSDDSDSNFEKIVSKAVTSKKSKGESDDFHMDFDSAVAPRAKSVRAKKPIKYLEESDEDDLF
Sequence of UniProt P09980 (whole entry, looked up): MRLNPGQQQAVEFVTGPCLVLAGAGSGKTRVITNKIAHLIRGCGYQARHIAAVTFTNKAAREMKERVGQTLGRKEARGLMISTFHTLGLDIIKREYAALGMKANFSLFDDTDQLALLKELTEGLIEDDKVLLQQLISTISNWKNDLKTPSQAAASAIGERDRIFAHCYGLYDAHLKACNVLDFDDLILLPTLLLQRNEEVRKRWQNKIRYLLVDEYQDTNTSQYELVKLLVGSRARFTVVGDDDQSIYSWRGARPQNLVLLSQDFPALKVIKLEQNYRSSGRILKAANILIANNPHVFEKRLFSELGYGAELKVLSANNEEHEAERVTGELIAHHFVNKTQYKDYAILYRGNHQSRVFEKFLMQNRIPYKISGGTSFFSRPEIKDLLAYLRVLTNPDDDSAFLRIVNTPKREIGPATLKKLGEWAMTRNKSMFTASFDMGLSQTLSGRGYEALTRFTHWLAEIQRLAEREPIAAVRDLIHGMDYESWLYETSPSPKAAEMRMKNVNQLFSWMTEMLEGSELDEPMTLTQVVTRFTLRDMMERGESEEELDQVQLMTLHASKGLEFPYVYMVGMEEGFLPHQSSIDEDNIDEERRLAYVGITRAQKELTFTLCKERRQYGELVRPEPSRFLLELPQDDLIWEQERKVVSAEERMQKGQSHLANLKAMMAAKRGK
Sequence of UniProt Q96SW2 (whole entry, looked up): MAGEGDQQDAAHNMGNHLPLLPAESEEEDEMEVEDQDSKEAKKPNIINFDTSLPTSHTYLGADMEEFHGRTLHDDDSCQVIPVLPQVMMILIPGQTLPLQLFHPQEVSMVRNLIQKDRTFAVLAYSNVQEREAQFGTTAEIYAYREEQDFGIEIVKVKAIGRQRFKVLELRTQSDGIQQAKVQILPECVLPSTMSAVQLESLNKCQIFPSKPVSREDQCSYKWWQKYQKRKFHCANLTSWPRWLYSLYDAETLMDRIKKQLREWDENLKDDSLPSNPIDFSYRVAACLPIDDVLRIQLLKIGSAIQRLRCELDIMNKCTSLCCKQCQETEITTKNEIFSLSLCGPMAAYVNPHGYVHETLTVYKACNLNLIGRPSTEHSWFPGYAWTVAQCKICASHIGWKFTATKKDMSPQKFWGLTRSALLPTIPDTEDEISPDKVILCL
Sequence of UniProt Q9ULC6 (whole entry, looked up): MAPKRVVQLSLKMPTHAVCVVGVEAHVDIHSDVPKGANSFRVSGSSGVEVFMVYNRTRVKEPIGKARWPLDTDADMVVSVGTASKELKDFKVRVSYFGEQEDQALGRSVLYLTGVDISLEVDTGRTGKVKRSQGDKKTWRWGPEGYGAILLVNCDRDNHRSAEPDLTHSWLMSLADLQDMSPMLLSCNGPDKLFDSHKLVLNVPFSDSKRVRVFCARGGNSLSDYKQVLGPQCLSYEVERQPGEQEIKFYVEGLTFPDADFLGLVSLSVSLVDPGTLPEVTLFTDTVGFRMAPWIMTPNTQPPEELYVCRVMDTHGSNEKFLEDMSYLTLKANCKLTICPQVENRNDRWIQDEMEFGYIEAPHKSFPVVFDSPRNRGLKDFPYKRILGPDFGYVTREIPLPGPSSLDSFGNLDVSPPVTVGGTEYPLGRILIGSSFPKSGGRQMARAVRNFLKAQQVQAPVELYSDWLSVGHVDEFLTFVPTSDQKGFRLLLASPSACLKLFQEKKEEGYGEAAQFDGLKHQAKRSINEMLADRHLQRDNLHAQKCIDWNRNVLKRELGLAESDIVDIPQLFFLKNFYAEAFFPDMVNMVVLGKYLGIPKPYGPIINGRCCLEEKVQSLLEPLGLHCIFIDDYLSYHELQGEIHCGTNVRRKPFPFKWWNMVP
Sequence of UniProt P41595 (whole entry, looked up): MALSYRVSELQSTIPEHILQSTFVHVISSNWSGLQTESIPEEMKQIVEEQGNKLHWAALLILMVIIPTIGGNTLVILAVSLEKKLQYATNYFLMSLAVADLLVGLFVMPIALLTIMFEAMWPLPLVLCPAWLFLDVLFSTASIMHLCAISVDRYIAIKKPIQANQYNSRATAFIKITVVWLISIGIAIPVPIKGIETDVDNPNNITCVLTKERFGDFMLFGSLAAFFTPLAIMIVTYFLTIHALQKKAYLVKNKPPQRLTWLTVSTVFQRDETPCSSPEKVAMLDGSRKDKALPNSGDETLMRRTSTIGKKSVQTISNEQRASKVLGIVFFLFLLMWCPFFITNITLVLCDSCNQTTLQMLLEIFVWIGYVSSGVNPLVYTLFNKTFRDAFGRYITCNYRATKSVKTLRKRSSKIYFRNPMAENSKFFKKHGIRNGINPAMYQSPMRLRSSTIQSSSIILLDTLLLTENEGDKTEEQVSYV
Sequence of UniProt Q16774 (whole entry, unmodified, looked up): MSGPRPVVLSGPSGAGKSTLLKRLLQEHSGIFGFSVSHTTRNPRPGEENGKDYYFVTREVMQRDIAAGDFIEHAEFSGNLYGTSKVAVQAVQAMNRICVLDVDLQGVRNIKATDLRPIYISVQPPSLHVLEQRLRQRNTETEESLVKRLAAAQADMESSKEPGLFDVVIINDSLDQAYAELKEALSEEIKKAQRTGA
Sequence of UniProt Q9KCC6 (whole entry, unmodified, looked up): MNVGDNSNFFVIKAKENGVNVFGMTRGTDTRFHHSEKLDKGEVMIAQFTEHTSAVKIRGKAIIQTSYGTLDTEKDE
Sequence of UniProt Q92207 (whole entry, looked up): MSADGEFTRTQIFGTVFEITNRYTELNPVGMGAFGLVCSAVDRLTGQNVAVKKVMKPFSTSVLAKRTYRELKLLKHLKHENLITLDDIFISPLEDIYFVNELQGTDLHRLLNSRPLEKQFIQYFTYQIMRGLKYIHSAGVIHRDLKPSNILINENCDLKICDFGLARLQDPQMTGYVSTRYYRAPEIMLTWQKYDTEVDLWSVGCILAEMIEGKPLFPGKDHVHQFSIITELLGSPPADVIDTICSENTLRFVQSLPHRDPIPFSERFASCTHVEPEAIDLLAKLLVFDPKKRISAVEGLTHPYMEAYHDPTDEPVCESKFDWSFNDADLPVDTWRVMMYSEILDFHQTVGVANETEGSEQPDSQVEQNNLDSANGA

Structure (SMILES)	target or system	test	test system	conditions	scale	measurement	value
Nc1ncnc2c1ncn2[C@@H]1O[C@H](CO[P@](=O)(O)O[P@](=O)(O)O[P@@](=O)(O)S)[C@@H](O)[C@H]1O	GUK1 (Homo sapiens, UniProt Q16774)	binding, isothermal titration calorimetry		molar ratio 0.6998, fitted curve		ΔH	-1.32 kcal/mol
CCn1c(-c2nc3cc(C(=O)N4CCC[C@@H](N)C4)cc(OC)c3n2C)cc2cccnc21	PADI1 (Homo sapiens, UniProt Q9ULC6)	enzyme activity, cell lysate	HEK293 expressing PADI1	100 µM, with: calcium 2 mM		citrullination	no effect
Nc1ncnc2c1ncn2[C@@H]1O[C@H](COP(=O)(O)OP(=O)(O)OP(=O)(O)O)[C@@H](O)[C@H]1O	P2X purinoceptor 2 (P2RX2, Homo sapiens, UniProt Q9UBL9, D148K)	ion current, agonist, two-electrode voltage clamp	Xenopus oocytes	concentration-response curve		Hill slope	1.04
Cc1n[nH]c2ccc(-c3cc(OC[C@@H](N)Cc4ccccc4)cnc3-c3ccoc3)cc12	Mitogen-activated protein kinase HOG1 (HOG1, Candida albicans, UniProt Q92207)	MIB/MS competition binding	Candida albicans cell lysate	100 nM	relative to: DMSO, lower = stronger binding	log2 fold change	0.146
CCCCC[C@H](O)/C=C/[C@H]1[C@H](O)CC(=O)[C@@H]1C/C=C\CCCC(=O)O	PTGER1 (Homo sapiens, UniProt P34995, Q344A)	IP1 accumulation, agonist	AD293	1 h, EP1 Q344A mutant		Emax	51.5 ± 5.83%
Nc1ccc(C(=O)O)cc1	BEST1, with wild-type BEST1 (Homo sapiens, UniProt O76090, A10T)	whole-cell patch clamp	HEK293 co-expressing WT and A10T mutant	concentration not given, membrane potential 100 mV		current density	36.8 pA/pF and 18.1 pA/pF and 38.5 pA/pF and 63.5 pA/pF and 19.6 pA/pF and 49.9 pA/pF
Nc1ncnc2c1ncn2[C@@H]1O[C@H](COP(=O)(O)OP(=O)(O)OP(=O)(O)O)[C@@H](O)[C@H]1O	rep, dimer, ssDNA-bound (Escherichia coli, UniProt P09980)	substrate				Km	2.7 µM
Cc1ncccc1OC[C@@H]1CN(CCN2CCc3ccccc32)CCO1	HTR2B (Homo sapiens, UniProt P41595)	radioligand binding		concentration not given, with: [3H]LSD		inhibition	28.1%
O=c1nc(SCc2cc(F)cc(C(F)(F)F)c2)nc(SCc2ccc3sccc3c2)[nH]1	TOP2A (Homo sapiens, UniProt P11388)	ATPase activity		15.6 µM, with: ATP 1 mM		ATP hydrolysis rate	0.653 µM/min and 0.757 µM/min
O=C1CCC(N2Cc3cc(Nc4noc5cc(F)ccc45)ccc3C2=O)C(=O)N1 (stereo not shown)	Cereblon/Casein kinase I alpha (CSNK1A1/CRBN, Homo sapiens, UniProt P48729+Q96SW2)	degrader, live-cell HiBiT kinetic	HEK293 LgBiT	10 µM		degradation rate constant	3.5 h⁻¹
N[C@@H](Cc1c[nH]c2ccccc12)C(=O)O	Transcription attenuation protein MtrB (mtrB, Halalkalibacterium halodurans, UniProt Q9KCC6)	isothermal titration calorimetry		25 °C, site 1 two-site model		ΔH	-49.1 ± 3.2 kcal/mol
Cn1cc(-c2ccc(-c3cncc(Cl)c3N3CCC4(CCNC4=O)CC3)cc2)cn1	COLO 205	microarray, item: TPBG		concentration not given, 2 h, gene set 5T4	relative to: untreated cells	fold change in expression	2.55
CC(=O)N[C@H](C(=O)N1C[C@H](O)C[C@H]1C(=O)NCc1ccc(-c2scnc2C)cc1)C(C)(C)SCCCCCCNC(=O)C[C@@H]1N=C(c2ccc(Cl)cc2)c2c(sc(C)c2C)-n2c(C)nnc21	Bromodomain-containing protein 2, BD1 (BRD2, Homo sapiens, UniProt P25440)	binding, ITC		25 °C, compound in cell, protein in syringe		ΔH	-16.2 ± 0.6 kcal/mol

Excerpt of the above:
Structure (SMILES)	target or system	test	test system	conditions	scale	measurement	value
O=C1CCC(N2Cc3cc(Nc4noc5cc(F)ccc45)ccc3C2=O)C(=O)N1 (stereo not shown)	Cereblon/Casein kinase I alpha (CSNK1A1/CRBN, Homo sapiens, UniProt P48729+Q96SW2)	degrader, live-cell HiBiT kinetic	HEK293 LgBiT	10 µM		degradation rate constant	3.5 h⁻¹
Nc1ncnc2c1ncn2[C@@H]1O[C@H](CO[P@](=O)(O)O[P@](=O)(O)O[P@@](=O)(O)S)[C@@H](O)[C@H]1O	GUK1 (Homo sapiens, UniProt Q16774)	binding, isothermal titration calorimetry		molar ratio 0.6998, fitted curve		ΔH	-1.32 kcal/mol
